Assay results of several laboratories.
Parts stem from different laboratories: compare values within a part only.

Set 1 — method: protein-binding microarray; form: double-stranded DNA, one strand shown; sample: in vitro; tested at: 250 nM; setting: 60-bp whole probe; added: salmon DNA 0.4 mg/ml; relative to: random background probes; direction: higher = stronger binding
Target: Interferon regulatory factor 5, full length, phosphomimetic (IRF5, Homo sapiens, UniProt Q13568-2, residues 1-514, K96S/S451D/S453D/S456D/S462D)
Strand	log fluorescence
GCCTAGCACTTAGGACTGCTTATCCTTCAGTGCTAGGTCTTGATTCGCTTGACGCTGCTG	-0.503 z-score
GCCTAGCACGACGATATCAGTATCGATACGTGCTAGGTCTTGATTCGCTTGACGCTGCTG	8.18 z-score
GCCTAGCACTTAGATCTCAGTTTCGAATAGTGCTAGGTCTTGATTCGCTTGACGCTGCTG	5.22 z-score
GCCTAGCACAACCGCCTCTCCCTTAGACGGTGCTAGGTCTTGATTCGCTTGACGCTGCTG	-0.321 z-score

Set 2 — method: RNA Bind-n-Seq; form: RNA; sample: in vitro; tested at: not given; relative to: input RNA pool; direction: higher = stronger binding
Target: RING finger protein unkempt homolog, zinc fingers 1-6, GST-SBP tag (UNK, Homo sapiens, UniProt Q9C0B0, residues 30-357)
Chain of UniProt Q9C0B0 (30-357, looked up): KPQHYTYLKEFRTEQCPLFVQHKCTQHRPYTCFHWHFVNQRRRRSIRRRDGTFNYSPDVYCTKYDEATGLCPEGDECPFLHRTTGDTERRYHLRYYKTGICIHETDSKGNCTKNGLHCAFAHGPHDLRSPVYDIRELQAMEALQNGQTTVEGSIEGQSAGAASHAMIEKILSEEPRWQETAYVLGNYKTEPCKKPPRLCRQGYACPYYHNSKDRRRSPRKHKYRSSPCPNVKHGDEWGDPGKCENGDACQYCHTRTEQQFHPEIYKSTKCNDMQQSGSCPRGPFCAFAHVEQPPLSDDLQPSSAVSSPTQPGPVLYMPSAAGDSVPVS
Setting: RNA with constant flanks, human-mouse chimeric sites, ends assumed
Strand	bound/input enrichment
GGGAGUUCUACAGUCCGACGAUCGUGACUGACAUUAAAAUUUCCCCUCAGCAAAGAAGUGCAGUAGUCACCAUAAUUCCAUCUGUGGUGAGUGCCAGUCAGAUUGUGGAGCUGGUCCCAGACCUCAGUUUAGAUACUGGGACUCAACAGAGGAUUGAGCAUCA	0.41 ratio
GGGAGUUCUACAGUCCGACGAUCGAGCCCAGCCGGCAGUUUGUAAAGGACUCAAUUCGGCUGGUUAAAAGAUGCACCAAACCCGACAGAAAAGAAUUCCAGAAGAUUGCCAUGGCAACAGCUAUAGGAUUUGCUAUCAUGGGACAACAGAGGAUUGAGCAUCA	0.196 ratio
GGGAGUUCUACAGUCCGACGAUCCAACCUCAGAGCCCAGACUUCCUGGAUAUUACCAACCCUAAAGCGGUAUUAGAAAAUGCAUUGAGAAACUUCGCCUGUCUGACCACCGGAGAUGUGAUUGCUAUCAACUACAAUGAGAAGCAACAGAGGAUUGAGCAUCA	0.4 ratio
GGGAGUUCUACAGUCCGACGAUCAGGAGGAGAUUAAAGGGUGAGAGUGGGGUGGAAGACUGUGUCAUGGCUCUGGAGACACUGUUCAGUGUCCUGCUUUCUCUGUGCAGACUGAUGGCCCCUUACACGCCCUUUCUGACUGAGCAACAGAGGAUUGAGCAUCA	0.0676 ratio

Set 3 — method: protein binding microarray; form: double-stranded DNA, one strand shown; sample: in vitro; tested at: not given; relative to: not given; direction: higher = stronger binding
Target: Histone acetyltransferase KAT6A, both winged helices, GST fusion (KAT6A, Homo sapiens, UniProt Q92794, residues 1-181)
Setting: 8-mer, flanks averaged, mean of 2 arrays, mostly near background
Residues (chain): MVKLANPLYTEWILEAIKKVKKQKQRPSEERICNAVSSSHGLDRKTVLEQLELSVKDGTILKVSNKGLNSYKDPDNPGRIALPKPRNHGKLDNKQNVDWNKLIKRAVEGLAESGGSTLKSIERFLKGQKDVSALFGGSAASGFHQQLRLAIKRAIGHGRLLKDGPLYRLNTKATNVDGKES
Strand	E-score
CGGCATGC	0.307
CGAGTACG	0.158
GCGTACCA	0.0176
CAAGAATC	-0.0519
CTTCAGAC	0.0321
CACCTAAG	-0.0895

Further values, each from its own experiment
Molecule	target	test	test system	conditions	scale	endpoint	value
PhoQ, residues 284 288 289 292 302 303 SVTLVV	PhoP, residues 12 14 15 18 19 AGCRL (Escherichia coli, UniProt P23836)	Sort-seq, refers to: YFP reporter	E. coli	PhoQ-PhoP variant library, added: 10 µM Mg2+	relative to: high Mg2+ state, higher = stronger signaling	fold induction	1.22

For quick reference, copied from above (set 2):
Strand	bound/input enrichment
GGGAGUUCUACAGUCCGACGAUCCAACCUCAGAGCCCAGACUUCCUGGAUAUUACCAACCCUAAAGCGGUAUUAGAAAAUGCAUUGAGAAACUUCGCCUGUCUGACCACCGGAGAUGUGAUUGCUAUCAACUACAAUGAGAAGCAACAGAGGAUUGAGCAUCA	0.4 ratio
GGGAGUUCUACAGUCCGACGAUCGAGCCCAGCCGGCAGUUUGUAAAGGACUCAAUUCGGCUGGUUAAAAGAUGCACCAAACCCGACAGAAAAGAAUUCCAGAAGAUUGCCAUGGCAACAGCUAUAGGAUUUGCUAUCAUGGGACAACAGAGGAUUGAGCAUCA	0.196 ratio
